# Values quoted from earlier work, collected from citations in different studies.
# Protocols differ between the studies behind these lines. ± gives the spread as reported.
# UniProt P9WHE9, sequence (whole entry, looked up): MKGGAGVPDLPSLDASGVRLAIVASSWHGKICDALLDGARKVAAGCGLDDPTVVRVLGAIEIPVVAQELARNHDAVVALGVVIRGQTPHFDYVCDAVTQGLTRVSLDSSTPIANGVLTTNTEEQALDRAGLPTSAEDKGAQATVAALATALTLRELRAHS
# UniProt Q9UUB1, sequence (whole entry, looked up): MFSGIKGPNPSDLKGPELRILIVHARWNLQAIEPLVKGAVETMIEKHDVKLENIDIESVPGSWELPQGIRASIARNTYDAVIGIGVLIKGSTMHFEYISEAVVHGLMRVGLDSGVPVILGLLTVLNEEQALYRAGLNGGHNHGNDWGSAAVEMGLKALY
SMILES,tested on,assay,test system,conditions,how to read,quantity,value
Cc1ccc2nc(SCc3cn(-c4cccc(C(=O)O)c4)nn3)n(Cc3ccccc3)c(=O)c2c1,HeLa,,,,,IC50,7.55 µM
CN(CCOCCOCCOCCNc1cccc2c1C(=O)N(C1CCC(=O)NC1=O)C2=O)CC[C@H](CSc1ccccc1)Nc1ccc(S(=O)(=O)NC(=O)c2ccc(N3CCN(CC4=C(c5ccc(Cl)cc5)CCC(C)(C)C4)CC3)cc2)cc1S(=O)(=O)C(F)(F)F (stereo partly shown),NCI-H146,,,,,IC50,0.025 µM
CN1CCN(c2cc(-c3ccccc3CO)c(N(C)C(=O)C(C)(C)c3cc(C(F)(F)F)cc(C(F)(F)F)c3)cn2)CC1,,,"healthy volunteers, plasma","oral, 300 mg, fed, fixed-dose combination, together with: palonosetron 0.5 mg",,AUC(0-inf),5750 ng·h/mL
CCCCn1cc(C(=O)O)c(=O)c2cc(F)c(Nc3cccc(Cl)c3)c(N)c21,T47D,,,,,IC50,< 50 µM
COCCOCCOCCOCCC(=O)NCc1cc(CNC(=O)CCOCCOCCOCCOC)cc(-c2cc3cc4nc(c(OC)c5[nH]c(cc6nc(cc2[nH]3)CC6(C)C)cc5-c2cc(CNC(=O)CCOCCOCCOCCOC)cc(CNC(=O)CCOCCOCCOCCOC)c2)CC4(C)C)c1,,,DMF,room temperature,,Soret (B) absorption maximum,363 nm
Cc1ccccc1-c1cc(N2CC[N+](C)([O-])CC2)ncc1N(C)C(=O)C(C)(C)c1cc(C(F)(F)F)cc(C(F)(F)F)c1,,,"healthy volunteers, plasma","oral, 300 mg, fasted, fixed-dose combination, together with: palonosetron 0.5 mg",,AUC(0-inf),2250 ng·h/mL
CC(=O)OC1C2C3CCC(C(C)(O)C4CC(C)=C(C)C(=O)O4)C3(C)CCC2C2(C)C(=O)C=CC(O)C23OC13 (stereo not shown),BC1,cell growth,,,,IC50,0.68 µM
CCC1=C(O)c2c(oc(-c3ccc4cc(OC)ccc4c3)cc2=O)C(CC)(CC)C1=O,PC-3,"cell growth, SRB",,,,IC50,4.78 µM
O=C1OCC2=C1C(c1ccccc1[N+](=O)[O-])C1=C(N2)C(=O)c2ccccc2C1=O (stereo not shown),KB cells,cell growth,,,,IC50,1.86 ± 0.02 µM
COc1cc(/C=N/N2C(=O)c3ccccc3NC2c2cc(OC)c(O)c([N+](=O)[O-])c2)cc([N+](=O)[O-])c1O (stereo not shown),human renal tubule TH-1,cytotoxicity,,,,IC50,> 1000 µM
CC1=CC(C)=[N+]2C1=C(CO)c1c(C)cc(C)n1[B-]2(C)C,H460,cell viability,,"concentration not given, white light irradiation",,IC50,0.17 ± 0.02 µM
COc1cc(Nc2nnc(-c3cc4ccccc4[nH]3)s2)cc(OC)c1OC,LNCaP,cytotoxicity,,,,IC50,0.15 µM
O=C(N/N=C\c1c(Cl)[nH]c2ccccc12)Nc1cccc(Br)c1,four cancer cell lines,cancer cell growth,,range over cell lines,,IC50,1.43 to 5.48 µM
CCC(=O)OC1=C(C(C)C)C(=O)C2=C(C1=O)[C@@]1(C)CCCC(C)(C)[C@@H]1[C@H](OC(=O)CC)[C@H]2OC(C)=O,HL-60,cell growth,,,,GI50,≤ 5 µM
CNCCCOc1cc(F)c(-c2c(Cl)nc3ncnn3c2N[C@@H](C)C(F)(F)F)c(F)c1,HEK293,,,"10 µM, 4 h, unit not given",relative to: vehicle (DMSO),acetylated α-tubulin level,1.06 ± 0.38
CCC1=C(O)c2c(oc(-c3ccc4ccccc4c3)cc2=O)C(CC)(CC)C1=O,HepG2,"cell growth, SRB",,,,IC50,1.55 µM
N#CC1=C(N)Nc2c(ccc3[nH]c4ccccc4c23)C12C(=O)N(Cc1cn(Cc3ccc(Cl)cc3)nn1)c1ccc(Br)cc12 (stereo not shown),HeLa,cell growth,,,,IC50,3.83 µM
CCNc1cc2c(cc1C)C1(c3cc(C)c(NCC)cc3O2)c2ccccc2C(=O)N1N=Cc1ccnc(-c2cc(C)ccn2)c1.Cc1c(C)c(-c2ccc(-c3ccccc3)cc2)[c-](C)c1C.F[P-](F)(F)(F)(F)F.[Cl-].[Ir+3],A549 cancer cells,,,,,IC50,2.6 ± 0.3 µM
CC1=C(C)C(=O)OC(C(C)(O)C2CCC3C4CC5OC56C(O)C=CC(=O)C6(C)C4CC(O)C32C)C1 (stereo not shown),bone marrow cells,,,,,IC50,9.71 µM
CCCCCC(=O)N[C@H](CC(=O)N(CC)CC)C(=O)N[C@@H](Cc1ccc(F)cc1)C(=O)N[C@@H](Cc1ccc(F)cc1F)C(=O)[C@@]1(C)CO1,mammalian cells,cell viability,,,,IC50,24.3 ± 2.3 µM
CC1=C(CO)C(=O)O[C@@H]([C@@H](C)[C@H]2CC[C@H]3[C@@H]4C[C@H]5O[C@]56[C@@H](O)C=CC(=O)[C@]6(C)[C@H]4CC[C@]23C)C1,Hs-578T,cell growth,,,,IC50,1.19 µM
CNc1nc2ccccc2n2c(CCc3ccccc3)cnc12,A-375,cell growth,,,,IC50,1.57 µM
CCC1=C(O)c2c(oc(-c3cc4ccccc4s3)cc2=O)C(CC)(CC)C1=O,PC-3,"cell growth, SRB",,,,IC50,3.81 µM
Nc1cc(C(F)F)c(-c2nc(N3CCOCC3)nc(N3CCOCC3)n2)cn1,A2058,"inhibitor, refers to: PKB Ser473 phosphorylation",,,,IC50,0.102 µM
CC(C)C1=C(O)C(=O)C2=C(C1=O)[C@H](O)[C@@H](O)[C@H]1C(C)(C)CCC[C@]21C,NCI-H460,,,,,GI50,> 30 µM
CCC1=C(O)c2c(oc(-c3cccc4ccccc34)cc2=O)C(CC)(CC)C1=O,HCT-8,"cell growth, SRB",,,,IC50,1.03 µM
Oc1cccc(-c2cccc(O)n2)n1.[Cl-].[Cl-].[Ru+2].c1cnc2c(c1)ccc1cccnc12.c1cnc2c(c1)ccc1cccnc12,HeLa,cell viability,,"together with: blue light 450 nm, 1 h",,IC50,383 µM
CCOC(=O)C(=O)Nc1c(NC[C@H](O)[C@H](O)[C@H](O)CO)[nH]c(=O)[nH]c1=O,"ribH (Mycobacterium tuberculosis, UniProt P9WHE9)",,,pH 7.0,,"Ki (uncompetitive, ESI)",35 ± 14 µM
COc1cc(/C=C/C(=O)NCCc2ccc(O)c(O)c2)ccc1O,RAW264.7,nitric oxide production,,"24 h, together with: LPS 100 ng/mL",,IC50,15.1 ± 0.805 µM
CC1=C2[O][Ru-]([Cl])[O+]=C2C=CN1CCCCCCN1C=CC2=[O+][Ru-]([Cl])[O]C2=C1C.Cc1ccc(C(C)C)cc1.Cc1ccc(C(C)C)cc1,A2780,MTT,,,,IC50,30 ± 6 µM
CC(=O)OCC1=C(C)CC(C(C)C2CCC3C4CC5OC56C(OC(C)=O)C=CC(=O)C6(COC(C)=O)C4CCC23C)OC1=O (stereo not shown),Hs-578T,cell growth,,,,IC50,0.32 µM
O=C1NCC(Cc2ccccc2)N(CC2CCCN2CC(CC2CCCCC2)N2CC(Cc3ccc(O)cc3)N(CCc3ccccc3)C(=O)C2=O)C1=O (stereo not shown),M14,viability,,,,IC50,4 ± 0.3 µM
N#Cc1c(NC(=O)CN2CCSCC2)c(C(=O)c2ccccc2)n2c1CCC2,MCF-7,cell growth,,,,IC50,0.0086 µM
Oc1cccc(-c2cccc(O)n2)n1.[Cl-].[Cl-].[Ru+2].c1cnc2c(c1)c1c(c3cccnc32)OCCO1.c1cnc2c(c1)c1c(c3cccnc32)OCCO1,HeLa,cell viability,,"together with: blue light 450 nm, 1 h",,IC50,120 µM
CCC1=C(O)c2c(oc(-c3ccc(OC)c4ccccc34)cc2=O)C(CC)(CC)C1=O,KB,"cell growth, SRB",,,,IC50,1.67 µM
O=C1OCC2=C1C(c1cccc(Br)c1)C1=C(N2)C(=O)c2ccccc2C1=O (stereo not shown),KB cells,cell growth,,,,IC50,1.71 ± 0.07 µM
CCN(CC)c1ccc2c(c1)Oc1cc(N(CC)CC)ccc1C21c2ccccc2C(=O)N1N=Cc1ccnc(-c2cc(C)ccn2)c1.Cc1c(C)c(-c2ccc(-c3ccccc3)cc2)[c-](C)c1C.F[P-](F)(F)(F)(F)F.[Cl-].[Ir+3],BEAS-2B,,,concentration not given,,IC50,7.2 ± 0.6 µM
O=c1[nH]c(SC[C@H](O)[C@H](O)[C@H](O)CO)c([N+](=O)[O-])c(=O)[nH]1,"6,7-dimethyl-8-ribityllumazine synthase (rib4, Schizosaccharomyces pombe, UniProt Q9UUB1)",enzyme kinetics,,pH 7.0,lower = tighter substrate binding,Ks,2.3 ± 0.2 µM
Cc1ccc(C2C3=C(COC3=O)NC3=C2C(=O)c2ccccc2C3=O)cc1 (stereo not shown),HEK293 cells,cell growth,,,,IC50,> 20 µM
CCCCCCCCCCCCCCCCCC1=C(C(=O)OC)C(c2cccc(O)c2)NC(=S)N1 (stereo not shown),glioma cell lines,cell growth,,,,IC50,6.85 µM
C=CC(=O)N1CCC[C@@H](n2nc(-c3cn(C)c4ccccc34)c3c(N)ncnc32)C1,"EGFR (Homo sapiens, UniProt P00533)",,,,,kinact,0.11 ± 0.03 min⁻¹
C=CCc1cccc2c1O[C@H](c1ccc(OCc3ccccc3)c(I)c1)[C@@](Cl)([N+](=O)[O-])C2=O,U-937,,,,,IC50,10 µM
CC1=C(COC2OC(CO)C(OC3OC(C)C(O)C(O)C3O)C(O)C2O)C(=O)OC(C(C)C2CCC3C4CC5OC56C(O)C=CC(=O)C6(C)C4CCC23C)C1 (stereo not shown),Hs-578T,cell growth,,,,IC50,11.1 µM
N=C(NO)NN=Cc1nccc2ccccc12,L1210,,,,,IC50,3.3 µM
Cc1ccc(C(C)C)cc1.O=C(N=P(c1ccccc1)(c1ccccc1)c1ccccc1)c1ccccn1.[Cl-].[Cl][Ru+],HEK-273,cytotoxicity,,,,IC50,2.8 ± 0.2 µM
CC(C)(C)C1=CC(=NNC(=O)c2ccncc2)C=C(C(C)(C)C)C1=O,HFF,cell viability,,,,IC50,28 µM
C/C(=N\NC(=O)c1ccc([N+](=O)[O-])cc1)c1ccc(NC(=O)c2cccnc2)cc1,HCT-116,,,,,IC50,4.05 µM
CC1=C(C)C(=O)OC(C(C)(O)C2CCC3C4CC5OC56C(O)C=CC(=O)C6(C)C4CCC32C)C1 (stereo not shown),Hep G2,cell growth,,,,IC50,0.45 µM
Cc1cc2[nH]c(C(=O)Nc3ccccc3C)c(CN3CCOCC3)c2s1,human cells,viability,,,,IC50,> 10 µM
O=C1OCC2=C1C(c1cccc([N+](=O)[O-])c1)C1=C(N2)C(=O)c2ccccc2C1=O (stereo not shown),KB cells,cell growth,,,,IC50,1.16 ± 0.01 µM
CC[C@H](C)[C@@H]1NC(=O)[C@H](Cc2c[nH]c3ccccc23)NC(=O)[C@H](C)NC(=O)[C@H](C(C)C)NC(=O)[C@H](CC(C)C)NC(=O)[C@H](Cc2c[nH]c3ccccc23)NC1=O,HeLa,,,,,IC50,11 µM
CC(=O)OC1CC2C3C(OC(C)=O)C4OC45C(O)C=CC(=O)C5(C)C3CCC2(C)C1C(C)(O)C1CC(C)=C(C)C(=O)O1 (stereo not shown),Col2,cell growth,,,,IC50,0.06 µM
COc1ccccc1NC(=O)N[C@H](C(=O)Nc1ccc(C(=O)NO)cc1)c1ccccc1,HeLa,"cell viability, MTT",,,,IC50,17.2 µM
CC1=C(CO)C(=O)OC(C(C)C2CCC3C4CC5OC56C(O)C(OS(=O)(=O)O)CC(=O)C6(C)C4CCC23C)C1 (stereo not shown),Hs-578T,cell growth,,,,IC50,1.16 µM
[Cl-].[Cl-].[Ru+2].c1ccc(-c2ccccn2)nc1.c1ccc(-c2ccccn2)nc1.c1cnc2c(c1)ccc1cccnc12,HT-29,,,light irradiation,,IC50,> 100 µM

# Some of these lines once more:
SMILES,tested on,assay,test system,conditions,how to read,quantity,value
COCCOCCOCCOCCC(=O)NCc1cc(CNC(=O)CCOCCOCCOCCOC)cc(-c2cc3cc4nc(c(OC)c5[nH]c(cc6nc(cc2[nH]3)CC6(C)C)cc5-c2cc(CNC(=O)CCOCCOCCOCCOC)cc(CNC(=O)CCOCCOCCOCCOC)c2)CC4(C)C)c1,,,DMF,room temperature,,Soret (B) absorption maximum,363 nm
CN1CCN(c2cc(-c3ccccc3CO)c(N(C)C(=O)C(C)(C)c3cc(C(F)(F)F)cc(C(F)(F)F)c3)cn2)CC1,,,"healthy volunteers, plasma","oral, 300 mg, fed, fixed-dose combination, together with: palonosetron 0.5 mg",,AUC(0-inf),5750 ng·h/mL
CCNc1cc2c(cc1C)C1(c3cc(C)c(NCC)cc3O2)c2ccccc2C(=O)N1N=Cc1ccnc(-c2cc(C)ccn2)c1.Cc1c(C)c(-c2ccc(-c3ccccc3)cc2)[c-](C)c1C.F[P-](F)(F)(F)(F)F.[Cl-].[Ir+3],A549 cancer cells,,,,,IC50,2.6 ± 0.3 µM
Cc1cc2[nH]c(C(=O)Nc3ccccc3C)c(CN3CCOCC3)c2s1,human cells,viability,,,,IC50,> 10 µM
COc1cc(/C=N/N2C(=O)c3ccccc3NC2c2cc(OC)c(O)c([N+](=O)[O-])c2)cc([N+](=O)[O-])c1O (stereo not shown),human renal tubule TH-1,cytotoxicity,,,,IC50,> 1000 µM
CCC1=C(O)c2c(oc(-c3cc4ccccc4s3)cc2=O)C(CC)(CC)C1=O,PC-3,"cell growth, SRB",,,,IC50,3.81 µM
